Results pooled from the literature.
Numbered parts are unrelated; each lists some results of a single study. Several values in a cell are separate wells, animals, samples, runs or records.

Sample 1 — method: protein binding microarray; form: double-stranded DNA, one strand shown; medium: in vitro; concentration: not given; reference: not given; reading: higher = stronger binding
Target: Histone acetyltransferase KAT6A, both winged helices, GST fusion (KAT6A, Homo sapiens, UniProt Q92794, residues 1-181)
Notes: 8-mer, flanks averaged, mean of 2 arrays, mostly near background
Target sequence (chain): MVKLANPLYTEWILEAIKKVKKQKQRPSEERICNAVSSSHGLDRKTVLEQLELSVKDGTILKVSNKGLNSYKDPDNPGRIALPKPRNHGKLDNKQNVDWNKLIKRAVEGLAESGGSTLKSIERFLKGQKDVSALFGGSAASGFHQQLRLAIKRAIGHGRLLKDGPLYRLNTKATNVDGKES
Strand | E-score
AAGTGCGT | 0.0197
GATTAAAC | 0.117
AGGCGTGG | 0.00832
ACGCGAAA | 0.155
AGACGTAT | 0.0183
ATCAGTGG | -0.262
CAGAACGA | -0.168
GGTCACAA | -0.0225
CATATTTA | 0.0249
TCAGAAGA | -0.119

Sample 2 — method: RNAcompete; form: RNA; medium: in vitro; concentration: 20 nM; notes: 7-mer, probes averaged, single round; reference: mean of 7-mers; reading: higher = stronger binding
Target: PABPC1L2, full length, GST fusion (mouse, UniProt A0ABA7IW68)
Target sequence (chain): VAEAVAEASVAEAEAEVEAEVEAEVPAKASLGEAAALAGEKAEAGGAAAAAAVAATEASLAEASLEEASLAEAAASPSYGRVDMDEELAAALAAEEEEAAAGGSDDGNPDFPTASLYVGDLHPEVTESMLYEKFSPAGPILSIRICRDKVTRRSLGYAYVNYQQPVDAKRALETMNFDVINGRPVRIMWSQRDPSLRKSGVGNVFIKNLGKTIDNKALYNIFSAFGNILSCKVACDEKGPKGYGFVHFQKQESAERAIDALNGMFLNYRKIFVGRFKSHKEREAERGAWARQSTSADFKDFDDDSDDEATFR
Strand | 7-mer Z-score
UACGCCA | -0.0826
AUAAUAA | 0.441
AGUAAAC | 0.552
GUGCACC | -0.233
CGUAGAU | -0.311
CUCCAAC | -0.264
CGCGGGC | -0.168
UAACGGG | 0.0768
UUGAACA | -0.0681
UGACAUC | -0.177
UUGGCGU | -0.315
AUACACA | 0.0932
UUCCAAG | -0.173

Sample 3 — method: competition protein-binding microarray; form: double-stranded DNA, one strand shown; medium: in vitro; concentration: 2 µM; added: Pho4 competitor, 0.05 µM; reading: higher = stronger binding; all sequences stand within: … GTCTTGATTCGCTTGACGCTGCTG
Target: Centromere-binding protein 1, full length, His-tagged (CBF1, Saccharomyces cerevisiae, UniProt P17106, residues 1-351)
UniProt P17106, sequence (whole entry, looked up): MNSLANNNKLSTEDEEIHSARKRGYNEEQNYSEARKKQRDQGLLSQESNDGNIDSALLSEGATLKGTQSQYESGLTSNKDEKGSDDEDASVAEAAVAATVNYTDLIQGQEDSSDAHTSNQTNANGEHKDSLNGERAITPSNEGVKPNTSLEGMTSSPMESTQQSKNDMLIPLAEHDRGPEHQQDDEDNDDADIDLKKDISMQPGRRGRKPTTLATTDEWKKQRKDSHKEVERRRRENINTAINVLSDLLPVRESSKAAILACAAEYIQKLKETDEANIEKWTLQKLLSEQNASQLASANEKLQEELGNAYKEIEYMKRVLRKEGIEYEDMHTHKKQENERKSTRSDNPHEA
Notes: whole 60-bp probe, lowest competitor level
Strand | fluorescence intensity
AGGTTTCCTTACTGGCACGTGCGGACCAAGCTCTAC | 1150 a.u.
AGATGCAGGACTCGGCACGTTTTACAATACGTATCG | 126 a.u.
TTTGATCTGGTCTCAAACGTGTATCTGTGGGGGGTA | 121 a.u.
TTTCCGCGATGCAGCACCGTGCGGAGAGATCCCAAT | 49.7 a.u.
TGCATTCAAAACATCAACGTGGCCGTCCCATAAGGC | 107 a.u.
GTCTTGTCTCATTGCTAAGTGGGTGTCCCCACTTCA | 86.7 a.u.
CAGCAAGTCCTTCCTCACCTGATCCTTCTCATCGTC | 120 a.u.
CTAACGAAGGTTTTTCACGTGGACTACAAGCCAAGT | 540 a.u.
AATTCATAATCTTTGCACGTGACTCGCATTTGATAC | 11500 a.u.
CATACCCAACCTTTTCACGTGTTTTAAGATATTTGT | 1220 a.u.
GACTCACCCACTCAGGACATGATGTCAGTAGCGGGT | 56 a.u.
CTAACGAAGGTTTGGGCGGTGGGTGACAAGCCAAGT | 60.5 a.u.
TTAAGTCTATGCCAGCACATGTGGTGCTCAGTGCTG | 118 a.u.
CTATTTGAAGGCCATCACGATGGTATTTTTCAAGAA | 98.8 a.u.

Mixed results
Molecule | target | test | test system | conditions | scale | quantity | result
PhoQ, residues 284 288 289 292 302 303 SSTLSG | PhoP, residues 12 14 15 18 19 LWHSL (Escherichia coli, UniProt P23836) | Sort-seq, item: YFP reporter | E. coli | PhoQ-PhoP variant library, added: 10 µM Mg2+ | reference: high Mg2+ state, higher = stronger signaling | fold induction | 10.8 and 4.31

Excerpt of the above (sample 1):
Strand | E-score
ACGCGAAA | 0.155
AGGCGTGG | 0.00832
TCAGAAGA | -0.119
